Literature values, collected from citations in different studies.
Lines come from different studies, so protocols differ. Converted amounts (≈) assume the structure as drawn.
HTR2C: 5-hydroxytryptamine receptor 2C (HTR2C, Homo sapiens, UniProt P28335)
UniProt P28335, sequence (whole entry, looked up): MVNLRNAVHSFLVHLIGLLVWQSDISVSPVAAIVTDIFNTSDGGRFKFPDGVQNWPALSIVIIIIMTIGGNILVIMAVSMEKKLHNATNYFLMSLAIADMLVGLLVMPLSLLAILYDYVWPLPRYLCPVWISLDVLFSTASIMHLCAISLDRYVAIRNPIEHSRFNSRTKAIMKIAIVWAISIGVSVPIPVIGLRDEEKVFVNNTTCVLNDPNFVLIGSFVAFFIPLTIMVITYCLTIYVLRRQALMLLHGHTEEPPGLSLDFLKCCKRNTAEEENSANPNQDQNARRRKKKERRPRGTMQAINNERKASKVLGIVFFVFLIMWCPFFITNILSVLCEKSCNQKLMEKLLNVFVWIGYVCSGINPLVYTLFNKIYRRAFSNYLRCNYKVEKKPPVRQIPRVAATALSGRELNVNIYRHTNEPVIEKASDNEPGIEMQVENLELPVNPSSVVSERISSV
BCHE: Cholinesterase (BCHE, Homo sapiens, UniProt P06276)
UniProt P06276, sequence (whole entry, looked up): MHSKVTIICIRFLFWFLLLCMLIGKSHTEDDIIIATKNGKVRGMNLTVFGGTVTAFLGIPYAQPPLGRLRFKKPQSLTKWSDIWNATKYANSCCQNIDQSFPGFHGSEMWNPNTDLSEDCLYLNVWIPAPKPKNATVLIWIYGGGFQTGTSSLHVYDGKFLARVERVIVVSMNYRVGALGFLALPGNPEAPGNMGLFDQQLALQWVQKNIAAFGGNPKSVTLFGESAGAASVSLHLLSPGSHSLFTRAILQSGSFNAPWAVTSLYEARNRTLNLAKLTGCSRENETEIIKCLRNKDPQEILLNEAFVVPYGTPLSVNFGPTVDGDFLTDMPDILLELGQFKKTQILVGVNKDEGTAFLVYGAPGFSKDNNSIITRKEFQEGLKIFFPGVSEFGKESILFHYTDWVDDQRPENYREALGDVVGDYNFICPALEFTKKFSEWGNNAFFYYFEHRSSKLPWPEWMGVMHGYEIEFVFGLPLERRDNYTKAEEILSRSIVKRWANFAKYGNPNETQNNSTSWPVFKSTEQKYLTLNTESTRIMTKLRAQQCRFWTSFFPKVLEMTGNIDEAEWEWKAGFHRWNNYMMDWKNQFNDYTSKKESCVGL
UniProt P22303, sequence (whole entry, looked up): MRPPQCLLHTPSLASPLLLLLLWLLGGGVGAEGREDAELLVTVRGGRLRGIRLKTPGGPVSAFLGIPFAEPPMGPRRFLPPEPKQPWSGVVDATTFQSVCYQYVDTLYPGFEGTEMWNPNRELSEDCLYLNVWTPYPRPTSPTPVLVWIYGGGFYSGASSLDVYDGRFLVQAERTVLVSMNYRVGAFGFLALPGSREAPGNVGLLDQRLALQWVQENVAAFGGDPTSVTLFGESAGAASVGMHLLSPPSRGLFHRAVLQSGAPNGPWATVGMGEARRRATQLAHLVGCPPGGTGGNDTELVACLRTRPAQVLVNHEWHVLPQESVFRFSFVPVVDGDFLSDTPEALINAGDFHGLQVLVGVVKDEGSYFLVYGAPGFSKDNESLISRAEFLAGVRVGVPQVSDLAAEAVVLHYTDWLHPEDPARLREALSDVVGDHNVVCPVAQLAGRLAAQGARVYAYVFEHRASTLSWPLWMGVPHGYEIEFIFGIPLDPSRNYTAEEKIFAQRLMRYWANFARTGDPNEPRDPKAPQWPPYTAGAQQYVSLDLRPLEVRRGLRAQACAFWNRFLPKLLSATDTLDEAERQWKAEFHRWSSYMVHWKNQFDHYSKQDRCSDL
UniProt P41595, sequence (whole entry, looked up): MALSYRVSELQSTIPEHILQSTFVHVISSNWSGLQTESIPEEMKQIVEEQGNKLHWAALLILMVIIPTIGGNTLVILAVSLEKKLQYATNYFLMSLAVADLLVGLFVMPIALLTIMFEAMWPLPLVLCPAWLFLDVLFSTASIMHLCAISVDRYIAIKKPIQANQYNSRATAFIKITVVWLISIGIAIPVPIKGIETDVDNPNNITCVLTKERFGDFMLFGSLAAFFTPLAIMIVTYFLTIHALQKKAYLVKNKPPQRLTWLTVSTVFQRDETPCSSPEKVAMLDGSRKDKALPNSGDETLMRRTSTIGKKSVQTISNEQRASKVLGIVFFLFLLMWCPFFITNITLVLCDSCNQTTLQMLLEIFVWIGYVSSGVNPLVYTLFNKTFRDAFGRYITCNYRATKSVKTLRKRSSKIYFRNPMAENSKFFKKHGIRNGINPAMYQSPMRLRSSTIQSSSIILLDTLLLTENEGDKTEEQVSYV

SMILES = OC[C@@]12C[C@@H]1[C@@H](n1cnc3c(N[C@@H](C4CCC4)C4CC4)nc(Cl)nc31)[C@H](O)[C@@H]2O; tested on = HTR2C; read-out = binding; added = [3H]mesulergine; endpoint = Ki; value = 270 nM
SMILES = CCC(=O)OC1C(=O)C2(C)C(O)CC3OCC3(OC(C)=O)C2C(OC(=O)c2cccc(OC(F)(F)F)c2)C2(O)CC(OC(=O)C(O)C(C=C(C)C)NC(=O)OC(C)(C)C)C(C)=C1C2(C)C (stereo not drawn); tested on = LCC6-WT; read-out = cytotoxicity; endpoint = IC50; value = 0.71 nM
SMILES = CC[C@H](C)[C@H](NC(=O)[C@H](CC(C)C)NC(=O)[C@H](CCCNC(=N)N)NC(=O)CNC(=O)CNC(=O)[C@H](CCCCN)NC(=O)[C@H](CCCNC(=N)N)NC(=O)[C@H](CC(C)C)NC(=O)[C@H](CC(C)C)NC(=O)[C@H](CCCNC(=N)N)NC(=O)[C@@H](NC(=O)[C@H](CC(C)C)NC(=O)[C@@H](N)CO)[C@@H](C)O)C(=O)NCC(=O)N[C@@H](Cc1c[nH]c2ccccc12)C(=O)N[C@@H](CCCNC(=N)N)C(=O)N[C@@H](Cc1c[nH]c2ccccc12)C(=O)N[C@@H](CCC(=O)O)C(=O)N[C@@H](CCCCN)C(=O)N[C@H](C(=O)N[C@@H](CCCNC(=N)N)C(=O)N[C@@H](CC(N)=O)C(=O)N[C@@H](Cc1c[nH]c2ccccc12)C(=O)N[C@H](C(=O)N[C@@H](CCCNC(=N)N)C(=O)N[C@@H](CCCNC(=N)N)C(=O)N[C@H](C(=O)N[C@H](C(=O)N[C@@H](CCC(=O)O)C(=O)N[C@@H](CCCCN)C(=O)N[C@@H](CCCNC(=N)N)C(=O)N[C@@H](CCCCN)C(=O)N1CCC[C@H]1C(=O)N[C@@H](CC(N)=O)C(=O)N[C@@H](CCCCN)C(=O)O)[C@@H](C)CC)[C@@H](C)CC)[C@@H](C)CC)[C@@H](C)O; tested on = Staphylococcus aureus; endpoint = MIC; value = > 128 µM
SMILES = O=C(Cn1cc(COC2=CC(=O)c3ccccc3C2=O)nn1)NCc1ccccc1Cl; tested on = BCHE; endpoint = Ki; value = 8.04 nM
SMILES = CNC(=O)[C@@]12C[C@@H]1[C@@H](n1cnc3c(NC(C4CC4)C4CC4)nc(Cl)nc31)[C@H](O)[C@@H]2O; tested on = HTR2C; read-out = binding; added = [3H]mesulergine; endpoint = Ki; value = 269 nM
SMILES = COC(=O)C1C2CCC(CC1c1ccc(Cl)c(Cl)c1)O2 (stereo not drawn); tested on = dopamine transporter; read-out = binding; endpoint = Ki; value = 3.4 nM
SMILES = CCOC(=O)[C@@]12C[C@@H]1[C@@H](n1cnc3c(NC(C4CC4)C4CC4)nc(Cl)nc31)[C@H](O)[C@@H]2O; tested on = HTR2B (Homo sapiens, UniProt P41595); read-out = binding; added = [3H]LSD; endpoint = Ki; value = 15 nM
SMILES = CCCCCCCCO[C@H]1O[C@H](COS(=O)(=O)O)[C@@H](OS(=O)(=O)O)[C@H](OS(=O)(=O)O)[C@@H]1O[C@H]1O[C@H](COS(=O)(=O)O)[C@@H](OS(=O)(=O)O)[C@H](O[C@H]2O[C@H](COS(=O)(=O)O)[C@@H](OS(=O)(=O)O)[C@H](O[C@H]3O[C@H](COS(=O)(=O)O)[C@@H](OS(=O)(=O)O)[C@H](OS(=O)(=O)O)[C@@H]3OS(=O)(=O)O)[C@@H]2OS(=O)(=O)O)[C@@H]1OS(=O)(=O)O; tested on = heparanase; endpoint = Ki; value = 5.8 nM
SMILES = CC[C@H](C)[C@H](NC(=O)[C@@H]1CCCN1C(=O)CNC(=O)[C@H](CC(C)C)NC(=O)[C@H](CCCCN)NC(=O)[C@H](CCCNC(=N)N)NC(=O)[C@H](Cc1c[nH]c2ccccc12)NC(=O)[C@H](C)NC(=O)[C@H](CC(N)=O)NC(=O)[C@H](CCCCN)NC(=O)[C@H](CC(C)C)NC(=O)[C@H](CCCCN)NC(=O)[C@H](CC(N)=O)NC(=O)[C@H](CCCNC(=N)N)NC(=O)[C@H](C)NC(=O)[C@H](CCCNC(=N)N)NC(=O)[C@H](CCCNC(=N)N)NC(=O)[C@H](Cc1ccccc1)NC(=O)[C@H](Cc1c[nH]c2ccccc12)NC(=O)CN)C(=O)N[C@H](C(=O)NCC(=O)N1CCC[C@H]1C(=O)N[C@@H](CC(C)C)C(=O)N[C@@H](CC(C)C)C(=O)N[C@H](C(=O)N[C@@H](CCCNC(=N)N)C(=O)O)[C@@H](C)O)C(C)C; tested on = Pseudomonas aeruginosa; endpoint = MIC; value = 4 µM (≈ 12.8 µg/mL)
SMILES = C=CCN1C[C@H](C)N([C@@H](c2ccccc2)c2ccc(C(=O)N(CC)CC)cc2)C[C@H]1C; tested on = rat delta opioid receptor; read-out = binding; endpoint = Ki; value = 0.5 nM
SMILES = O=C(Cc1ccccc1Cl)Cn1cc(COC2=CC(=O)c3ccccc3C2=O)nn1; tested on = ACHE (Homo sapiens, UniProt P22303); action = inhibitor; endpoint = Ki; value = 10.2 nM
SMILES = C[C@@H]1CN([C@@H](c2cccc(O)c2)c2cccc(C(=O)N(C)c3cccc(F)c3)c2)[C@@H](C)CN1Cc1ccccc1; tested on = rat delta opioid receptor; read-out = binding; endpoint = Ki; value = 0.4 nM
SMILES = CC(=O)OC1C(=O)C2(C)C(O)CC3OCC3(OC(C)=O)C2C(OC(=O)c2cccc(OC(F)(F)F)c2)C2(O)CC(OC(=O)C(O)C(C=C(C)C)NC(=O)OC(C)(C)C)C(C)=C1C2(C)C (stereo not drawn); tested on = LCC6-WT; read-out = cytotoxicity; endpoint = IC50; value = 0.51 nM
SMILES = O=C(Cn1cc(CN2C(=O)C(=O)c3cc(F)ccc32)nn1)NCc1ccccc1Cl; tested on = BCHE; endpoint = Ki; value = 8.04 nM
SMILES = C=CCN1C[C@H](C)N([C@@H](c2cccc(O)c2)c2cccc(C(=O)N(C)c3cccc(F)c3)c2)C[C@H]1C; tested on = mu opioid receptor rat; endpoint = Ki; value = 0.18 to 7.56 nM

Repeated from above:
SMILES = CC[C@H](C)[C@H](NC(=O)[C@@H]1CCCN1C(=O)CNC(=O)[C@H](CC(C)C)NC(=O)[C@H](CCCCN)NC(=O)[C@H](CCCNC(=N)N)NC(=O)[C@H](Cc1c[nH]c2ccccc12)NC(=O)[C@H](C)NC(=O)[C@H](CC(N)=O)NC(=O)[C@H](CCCCN)NC(=O)[C@H](CC(C)C)NC(=O)[C@H](CCCCN)NC(=O)[C@H](CC(N)=O)NC(=O)[C@H](CCCNC(=N)N)NC(=O)[C@H](C)NC(=O)[C@H](CCCNC(=N)N)NC(=O)[C@H](CCCNC(=N)N)NC(=O)[C@H](Cc1ccccc1)NC(=O)[C@H](Cc1c[nH]c2ccccc12)NC(=O)CN)C(=O)N[C@H](C(=O)NCC(=O)N1CCC[C@H]1C(=O)N[C@@H](CC(C)C)C(=O)N[C@@H](CC(C)C)C(=O)N[C@H](C(=O)N[C@@H](CCCNC(=N)N)C(=O)O)[C@@H](C)O)C(C)C; tested on = Pseudomonas aeruginosa; endpoint = MIC; value = 4 µM (≈ 12.8 µg/mL)
SMILES = OC[C@@]12C[C@@H]1[C@@H](n1cnc3c(N[C@@H](C4CCC4)C4CC4)nc(Cl)nc31)[C@H](O)[C@@H]2O; tested on = HTR2C; read-out = binding; added = [3H]mesulergine; endpoint = Ki; value = 270 nM
